Measured values of several laboratories.
Compare with care: the assays were run in different laboratories. ± marks the error that the study gave.
rep nsp14: Replicase polyprotein 1ab, nsp14 (rep, Severe acute respiratory syndrome coronavirus 2, UniProt P0DTD1)
UniProt P11388, sequence (whole entry, looked up): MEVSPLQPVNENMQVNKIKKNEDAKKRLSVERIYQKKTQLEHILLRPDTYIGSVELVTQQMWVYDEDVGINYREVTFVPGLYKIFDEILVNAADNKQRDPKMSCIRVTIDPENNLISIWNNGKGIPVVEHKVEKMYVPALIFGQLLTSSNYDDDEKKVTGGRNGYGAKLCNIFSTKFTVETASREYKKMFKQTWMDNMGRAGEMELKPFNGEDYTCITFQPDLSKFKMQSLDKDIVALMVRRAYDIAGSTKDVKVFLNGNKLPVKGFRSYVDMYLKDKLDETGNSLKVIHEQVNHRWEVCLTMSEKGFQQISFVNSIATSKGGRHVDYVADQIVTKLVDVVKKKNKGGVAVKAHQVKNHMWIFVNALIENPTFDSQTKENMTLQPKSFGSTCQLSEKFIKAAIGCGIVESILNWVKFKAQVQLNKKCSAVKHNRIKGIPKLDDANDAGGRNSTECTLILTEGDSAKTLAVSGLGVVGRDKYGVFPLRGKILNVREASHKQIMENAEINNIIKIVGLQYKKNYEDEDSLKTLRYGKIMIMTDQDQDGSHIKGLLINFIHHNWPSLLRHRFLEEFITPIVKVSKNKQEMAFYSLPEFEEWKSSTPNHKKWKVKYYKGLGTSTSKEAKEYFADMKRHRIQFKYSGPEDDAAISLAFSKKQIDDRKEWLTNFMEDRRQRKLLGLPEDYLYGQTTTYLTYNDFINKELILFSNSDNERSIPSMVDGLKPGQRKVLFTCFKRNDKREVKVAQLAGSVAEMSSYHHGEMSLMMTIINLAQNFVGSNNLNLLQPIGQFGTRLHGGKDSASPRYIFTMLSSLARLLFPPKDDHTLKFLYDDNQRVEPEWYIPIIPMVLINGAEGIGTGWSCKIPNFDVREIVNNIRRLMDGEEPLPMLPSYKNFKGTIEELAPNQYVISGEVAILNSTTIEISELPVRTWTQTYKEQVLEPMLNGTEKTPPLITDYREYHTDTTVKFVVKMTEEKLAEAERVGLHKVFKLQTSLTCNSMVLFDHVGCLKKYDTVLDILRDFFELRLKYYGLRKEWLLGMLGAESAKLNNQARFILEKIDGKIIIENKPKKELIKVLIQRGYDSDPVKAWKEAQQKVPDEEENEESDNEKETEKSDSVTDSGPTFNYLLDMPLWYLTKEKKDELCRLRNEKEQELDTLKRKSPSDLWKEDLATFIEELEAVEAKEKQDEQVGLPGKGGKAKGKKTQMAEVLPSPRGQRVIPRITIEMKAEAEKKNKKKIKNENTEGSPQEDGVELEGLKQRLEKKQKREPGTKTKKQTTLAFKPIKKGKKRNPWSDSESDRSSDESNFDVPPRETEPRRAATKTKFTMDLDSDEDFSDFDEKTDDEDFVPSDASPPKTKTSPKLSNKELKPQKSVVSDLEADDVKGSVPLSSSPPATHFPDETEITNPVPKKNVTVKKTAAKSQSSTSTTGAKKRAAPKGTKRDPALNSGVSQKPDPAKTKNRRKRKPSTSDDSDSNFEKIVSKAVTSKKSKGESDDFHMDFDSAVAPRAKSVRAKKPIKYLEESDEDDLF

| Structure (SMILES) | tested on | test | test system | setting | scale | measurement | result |
| --- | --- | --- | --- | --- | --- | --- | --- |
| Cc1c(CN2Cc3ccccc3C2)cc(C(=O)NCc2cccnc2N2CCCC2)n1C | rep nsp14 | inhibitor |  |  |  | IC50 | > 6250 nM |
| N#CCC1CCN(c2nc(Nc3ccc(N4CCC(O)CC4)cc3)c3c(=O)[nH]ncc3n2)CC1 |  | vs placebo, Olink multiplex | human, serum | 20 mg, day 15, unit not given | baseline: placebo | osteopontin level difference | -1.14 |
| CC(C)(C(=O)N1CCOc2c(C#N)cncc2C1)C(F)F |  | refers to: injury, poisoning, procedural complications | human | oral, 20 mg twice daily, 14 days, multiple ascending dose |  | subjects with adverse event | 0% |
| COC(=O)Nc1c(N)nc(-c2nn(Cc3ccccc3F)c3ncc(F)cc23)nc1N |  |  | human, male, fasting, plasma | 15 mg single dose, alone, geometric mean |  | Cmax | 402 ng/mL |
| Fc1ccccc1Cc1nc(-c2nc(C(F)(F)F)n[nH]2)cn2ccnc12 |  |  | healthy human subjects, both sexes | oral, 10 mg, fasted |  | subjects with hepatic enzyme increased | 7.1% |
| COC(=O)Nc1c(N)nc(-c2nn(Cc3ccccc3F)c3ncc(F)cc23)nc1N |  |  | healthy men | oral, 10 mg daily, multiple dose, with: sildenafil 50 mg | baseline: with over without sildenafil | Cmax ratio | 0.911 |
| NS(=O)(=O)c1cc(C(=O)O)c(NCc2ccco2)cc1Cl |  | refers to: injury, poisoning, procedural complications | healthy men | oral, 8 days, treatment-emergent, crossover trial |  | subjects with adverse event | 0% |
| COc1ccc([C@@H](O)c2cc(-c3ncnc4cc(N5CCOCC5)ccc34)c(F)cc2Cl)nn1 |  |  | locally advanced rectal cancer patients | 100 mg, with: capecitabine and radiotherapy |  | injury poisoning procedural TEAE | 50% |
| Cc1c(S(=O)(=O)N2CCc3n[nH]cc3C2)cc(C(=O)NCc2cccc3cnn(C)c23)n1C | rep nsp14 | inhibitor |  |  |  | IC50 | 0.18 nM |
| CC(=O)CC(c1ccccc1)c1c(O)c2ccccc2oc1=O (stereo not shown) |  |  | human | concentration not given, trial 1 |  | subjects with injury, poisoning | 0% |
| CO/N=C(\C(=O)N[C@@H]1C(=O)N2C(C(=O)O)=C(COC(C)=O)CS[C@H]12)c1csc(N)n1 | Pseudomonas aeruginosa |  | clinical isolate RKI-No_84/15 |  |  | MIC | > 16 µg/mL |
| O=C1CC2(CCCC2)CC(=O)N1CCCCN1CCN(c2ncccn2)CC1 |  |  | human liver microsomes | 10 µM, 30 min |  | remaining compound | 2.29 ± 0.95% |
| Cc1cc(-c2nccc3c2ccn3CC(=O)Nc2ccc(-c3cnccn3)cn2)ccn1 |  |  | healthy human volunteers | oral, 20 mg once daily, 14 days, multiple ascending dose |  | injury or procedural TEAEs | 22.2% |
| CC1COc2ccccc2N1C(=O)C(Cl)Cl (stereo not shown) |  | carboxylesterase hydrolysis | rhesus monkey, female, liver microsomes | 5 µM, 30 min, pH 7.4, without NADPH |  | enantiomeric fraction | 0.25 |
| O=C(Nc1nc2cccc(-c3ccc(CN4CCS(=O)(=O)CC4)cc3)n2n1)C1CC1 |  | refers to: injury or procedural complication | rheumatoid arthritis patients | oral, 30 mg once daily, 4 weeks, any relatedness |  | patients with adverse event | 0% |
| CCn1c(=O)c(-c2cc(NC(=O)Nc3ccccc3)c(F)cc2Br)cc2cnc(NC)cc21 |  | refers to: injury and poisoning | healthy, matched to severe impairment | 50 mg single dose |  | patients with grade 3+ TEAE | 0% |
| CN(C)C(=N)N=C(N)N |  | refers to: injury, poisoning, procedural complications | healthy men | oral, dose not given, 8 days, treatment-emergent, crossover trial |  | subjects with adverse event | 4.5% |
| COc1cc([C@@H]2c3cc4c(cc3[C@@H](O[C@@H]3O[C@@H]5CO[C@@H](C)O[C@H]5[C@H](O)[C@H]3O)[C@H]3COC(=O)[C@H]23)OCO4)cc(OC)c1O | TOP2A (Homo sapiens, UniProt P11388) | DNA cleavage |  | 15.6 µM, replicate 2 |  | linear DNA | 10.8% |
| C[C@H]1O[C@@H](O[C@H]2[C@@H](O)C[C@H](O[C@H]3[C@@H](O)C[C@H](O[C@H]4CC[C@@]5(C)[C@H](CC[C@@H]6[C@@H]5C[C@@H](O)[C@]5(C)[C@@H](C7=CC(=O)OC7)CC[C@]65O)C4)O[C@@H]3C)O[C@@H]2C)C[C@H](O)[C@@H]1O |  |  | humans, plasma | dose not given, phase I DDI study, with: vericiguat |  | AUC(0-tau) at steady state | 19.6 ng·h/mL |

A few entries again:
| Structure (SMILES) | tested on | test | test system | setting | scale | measurement | result |
| --- | --- | --- | --- | --- | --- | --- | --- |
| COc1ccc([C@@H](O)c2cc(-c3ncnc4cc(N5CCOCC5)ccc34)c(F)cc2Cl)nn1 |  |  | locally advanced rectal cancer patients | 100 mg, with: capecitabine and radiotherapy |  | injury poisoning procedural TEAE | 50% |
| Cc1c(S(=O)(=O)N2CCc3n[nH]cc3C2)cc(C(=O)NCc2cccc3cnn(C)c23)n1C | rep nsp14 | inhibitor |  |  |  | IC50 | 0.18 nM |
